Measured values from different studies.
Protocols differ between the studies behind these lines. ± gives the spread as reported.
KCNH2: Voltage-gated inwardly rectifying potassium channel KCNH2 (KCNH2, Homo sapiens, UniProt Q12809)
CYP1A2: Cytochrome P450 1A2 (CYP1A2, Homo sapiens, UniProt P05177)
Chain of UniProt P05177 (whole entry, looked up): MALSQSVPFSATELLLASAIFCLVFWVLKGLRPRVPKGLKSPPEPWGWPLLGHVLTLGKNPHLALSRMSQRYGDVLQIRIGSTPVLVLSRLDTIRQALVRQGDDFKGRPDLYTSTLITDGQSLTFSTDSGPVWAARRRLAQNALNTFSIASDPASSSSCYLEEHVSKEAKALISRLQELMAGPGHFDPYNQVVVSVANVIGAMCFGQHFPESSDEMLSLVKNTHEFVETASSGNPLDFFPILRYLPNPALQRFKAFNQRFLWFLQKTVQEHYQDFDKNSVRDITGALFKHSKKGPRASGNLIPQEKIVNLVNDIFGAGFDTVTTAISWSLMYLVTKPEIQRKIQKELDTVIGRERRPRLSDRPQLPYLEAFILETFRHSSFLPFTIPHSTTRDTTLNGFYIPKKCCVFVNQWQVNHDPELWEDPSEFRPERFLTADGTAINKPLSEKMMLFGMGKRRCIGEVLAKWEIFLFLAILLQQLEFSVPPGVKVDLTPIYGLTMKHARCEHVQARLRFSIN
CYP2D6: Cytochrome P450 2D6 (CYP2D6, Homo sapiens, UniProt P10635)
Chain of UniProt P10635 (whole entry, looked up): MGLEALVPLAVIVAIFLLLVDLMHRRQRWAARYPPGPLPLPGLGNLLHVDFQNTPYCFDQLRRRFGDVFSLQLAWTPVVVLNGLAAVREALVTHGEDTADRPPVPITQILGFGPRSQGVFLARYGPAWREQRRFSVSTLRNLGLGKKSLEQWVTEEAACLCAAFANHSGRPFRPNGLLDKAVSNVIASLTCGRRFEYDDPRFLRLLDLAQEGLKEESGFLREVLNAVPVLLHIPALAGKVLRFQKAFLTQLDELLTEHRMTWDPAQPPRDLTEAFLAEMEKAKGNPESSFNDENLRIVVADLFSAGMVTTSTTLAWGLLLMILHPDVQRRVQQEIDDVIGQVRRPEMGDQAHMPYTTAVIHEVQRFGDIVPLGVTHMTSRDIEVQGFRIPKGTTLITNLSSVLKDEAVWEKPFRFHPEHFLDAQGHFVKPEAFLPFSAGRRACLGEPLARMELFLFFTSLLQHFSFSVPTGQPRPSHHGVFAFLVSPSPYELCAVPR
SLC47A1: Multidrug and toxin extrusion protein 1 (SLC47A1, Homo sapiens, UniProt Q96FL8)
Chain of UniProt Q96FL8 (whole entry, looked up): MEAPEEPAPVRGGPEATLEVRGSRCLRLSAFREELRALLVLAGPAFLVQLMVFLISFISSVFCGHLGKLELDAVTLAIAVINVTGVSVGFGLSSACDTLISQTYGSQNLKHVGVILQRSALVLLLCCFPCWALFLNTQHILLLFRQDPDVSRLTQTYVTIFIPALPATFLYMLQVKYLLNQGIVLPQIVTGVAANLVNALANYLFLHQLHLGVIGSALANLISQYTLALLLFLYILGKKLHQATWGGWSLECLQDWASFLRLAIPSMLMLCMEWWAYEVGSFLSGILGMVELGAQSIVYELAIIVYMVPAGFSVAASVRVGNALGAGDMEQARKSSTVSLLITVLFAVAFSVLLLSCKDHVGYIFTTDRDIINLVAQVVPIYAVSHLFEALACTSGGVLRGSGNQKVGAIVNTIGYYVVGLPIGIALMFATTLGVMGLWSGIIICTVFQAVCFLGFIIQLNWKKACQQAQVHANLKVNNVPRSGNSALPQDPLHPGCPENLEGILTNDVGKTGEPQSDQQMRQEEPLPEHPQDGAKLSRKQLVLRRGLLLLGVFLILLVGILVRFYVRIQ
Chain of UniProt Q13561 (whole entry, looked up): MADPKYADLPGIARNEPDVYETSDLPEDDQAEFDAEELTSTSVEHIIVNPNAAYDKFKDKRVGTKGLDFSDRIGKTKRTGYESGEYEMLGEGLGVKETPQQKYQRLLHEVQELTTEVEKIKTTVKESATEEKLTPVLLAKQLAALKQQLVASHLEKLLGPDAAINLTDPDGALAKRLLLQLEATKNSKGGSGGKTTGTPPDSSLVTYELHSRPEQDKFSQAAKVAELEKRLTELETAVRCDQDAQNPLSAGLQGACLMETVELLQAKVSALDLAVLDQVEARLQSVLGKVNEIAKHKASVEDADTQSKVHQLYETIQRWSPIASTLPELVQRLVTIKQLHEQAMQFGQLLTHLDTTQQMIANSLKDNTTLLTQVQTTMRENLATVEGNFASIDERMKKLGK
Chain of UniProt P0CY27 (whole entry, looked up): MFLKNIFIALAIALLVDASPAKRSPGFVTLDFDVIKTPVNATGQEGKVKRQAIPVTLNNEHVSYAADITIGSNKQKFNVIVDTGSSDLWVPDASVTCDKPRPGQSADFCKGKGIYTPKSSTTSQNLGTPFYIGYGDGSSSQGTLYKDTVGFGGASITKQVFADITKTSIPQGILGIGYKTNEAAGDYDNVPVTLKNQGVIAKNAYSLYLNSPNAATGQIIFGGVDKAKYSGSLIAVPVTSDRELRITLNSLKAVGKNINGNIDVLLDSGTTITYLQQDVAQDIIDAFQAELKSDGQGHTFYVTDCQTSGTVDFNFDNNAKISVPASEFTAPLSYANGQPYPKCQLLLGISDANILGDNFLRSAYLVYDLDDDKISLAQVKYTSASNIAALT
Chain of UniProt Q9HCP0 (whole entry, looked up): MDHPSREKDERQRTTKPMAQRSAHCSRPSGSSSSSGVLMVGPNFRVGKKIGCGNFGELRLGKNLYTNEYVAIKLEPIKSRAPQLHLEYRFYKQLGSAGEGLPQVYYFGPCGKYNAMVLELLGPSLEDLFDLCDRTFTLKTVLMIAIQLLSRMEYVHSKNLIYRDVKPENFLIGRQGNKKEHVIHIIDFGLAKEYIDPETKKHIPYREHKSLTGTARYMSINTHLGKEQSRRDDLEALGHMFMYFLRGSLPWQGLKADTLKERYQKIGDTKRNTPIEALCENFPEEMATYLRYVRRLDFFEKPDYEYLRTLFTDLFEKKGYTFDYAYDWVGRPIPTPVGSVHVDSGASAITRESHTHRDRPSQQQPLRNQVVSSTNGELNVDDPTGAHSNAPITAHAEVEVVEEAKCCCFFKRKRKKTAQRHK
Chain of UniProt P46059 (whole entry, looked up): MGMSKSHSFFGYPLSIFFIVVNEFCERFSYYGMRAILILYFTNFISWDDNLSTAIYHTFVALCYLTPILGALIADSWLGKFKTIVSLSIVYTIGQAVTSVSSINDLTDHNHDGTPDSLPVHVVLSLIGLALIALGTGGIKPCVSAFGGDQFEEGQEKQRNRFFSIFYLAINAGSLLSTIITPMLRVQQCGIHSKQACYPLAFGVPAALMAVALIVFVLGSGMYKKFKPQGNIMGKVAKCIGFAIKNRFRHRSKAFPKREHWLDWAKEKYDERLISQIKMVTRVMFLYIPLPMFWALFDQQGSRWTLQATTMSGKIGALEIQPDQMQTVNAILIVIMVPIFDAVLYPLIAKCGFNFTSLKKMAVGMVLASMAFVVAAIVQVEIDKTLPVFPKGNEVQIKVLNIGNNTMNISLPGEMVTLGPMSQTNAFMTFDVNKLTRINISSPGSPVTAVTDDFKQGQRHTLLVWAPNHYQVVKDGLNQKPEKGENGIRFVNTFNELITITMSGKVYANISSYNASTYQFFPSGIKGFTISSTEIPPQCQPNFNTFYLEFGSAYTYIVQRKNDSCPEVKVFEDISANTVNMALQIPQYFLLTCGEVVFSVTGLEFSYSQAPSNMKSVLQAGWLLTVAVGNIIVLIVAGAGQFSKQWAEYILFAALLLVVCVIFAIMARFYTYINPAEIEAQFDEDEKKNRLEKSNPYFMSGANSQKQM

With CCOc1ccc2cc(-c3nn(CC4CCN(C)CC4)c4ncnc(N)c34)ccc2n1 the EC50 was 10 µM (KCNH2; thallium flux, inhibitor).
The remaining binding of C[C@H]1CN(c2n[nH]c3nc(N[C@H]4CC[C@H](NS(=O)(=O)CCC(F)(F)F)CC4)ncc23)CCO1 is reported as 0.92 (Dynactin subunit 2 (DCTN2, Homo sapiens, UniProt Q13561); Kinobeads competition, item: DCTN2; 0.032 µM, unit not given; relative to: vehicle).
C[C@H](NC(=O)[C@H](Cc1cnc[nH]1)NC(=O)[C@H](CO)NC(=O)[C@@H](N)CC(=O)O)C(=O)N[C@@H](CCCCN)C(=O)N[C@@H](CCCNC(=N)N)C(=O)N[C@@H](Cc1cnc[nH]1)C(=O)N[C@@H](Cc1cnc[nH]1)C(=O)NCC(=O)N[C@@H](Cc1ccc(O)cc1)C(=O)N[C@@H](CCCCN)C(=O)N[C@@H](CCCNC(=N)N)C(=O)N[C@@H](CCCCN)C(=O)N[C@@H](Cc1ccccc1)C(=O)N[C@@H](Cc1cnc[nH]1)C(=O)N[C@@H](CCC(=O)O)C(=O)N[C@@H](CCCCN)C(=O)N[C@@H](Cc1cnc[nH]1)C(=O)N[C@@H](Cc1cnc[nH]1)C(=O)N[C@@H](CO)C(=O)N[C@@H](Cc1cnc[nH]1)C(=O)N[C@@H](CCCNC(=N)N)C(=O)NCC(=O)N[C@@H](Cc1ccc(O)cc1)C(=O)O — result for “intact peptide remaining”: 37% (Secreted aspartic protease 1 (SAP1, Candida albicans, UniProt P0CY27); proteolytic degradation, gel densitometry; 150 µg/mL, 2 h, pH 7.4, with: SAP1 5.0 µg/mL).
The IC50 of COc1ccc(CCC2CCCC(CCc3ccc(OC)cc3)N2C[C@@H](O)CO)cc1 (stereo in doubt) is reported as 0.81 ± 0.11 µM (KCNH2; binding, radioligand displacement; HEK293 cell membranes; with: [3H]dofetilide 5 nM).
With CCC[S+]([O-])c1ccc2[nH]c(NC(=O)OC)nc2c1 (stereo not drawn) the inhibition was 22% (CYP1A2; inhibitor; human liver microsomes; 10 µM, pH 7.4, with: phenacetin).
For CN1CC[C@@H](c2c(O)cc(O)c3c(=O)cc(-c4ccc(C(F)(F)F)cc4Cl)oc23)[C@@H]1CO, “patients with adverse event” read 0% (item: Anemia; relapsed B-cell malignancies; oral, 100 mg, grade 3-4, intermittent dosing).
COc1ccc(N2C(=O)N(c3c(C)cccc3Cl)Cc3cnc(Nc4ccc(C5CCN(C)CC5)cc4OC)nc32)nc1 gave an inhibition of 1.13% (CSNK1G1 (Homo sapiens, UniProt Q9HCP0); kinase activity, inhibitor; 0.5 µM, kinase CK1-GAMMA1).
CCCC[C@H]1C(=O)N(C)[C@@H](CCCC)C(=O)N[C@@H](CCCCNC(=O)CN2CCN(CC(=O)O)CCN(CC(=O)O)CC2)C(=O)N[C@H](C(=O)NCC(N)=O)CSCC(=O)N[C@@H](Cc2ccc(O)cc2)C(=O)N(C)[C@@H](C)C(=O)N[C@@H](CC(N)=O)C(=O)N2CCC[C@H]2C(=O)N[C@@H](Cc2c[nH]cn2)C(=O)N[C@@H](CCC(=O)O)C(=O)N2C[C@H](O)C[C@H]2C(=O)N[C@@H](Cc2c[nH]c3ccccc23)C(=O)N[C@@H](CO)C(=O)N[C@@H](Cc2cn(CC(=O)O)c3ccccc23)C(=O)N1C [gallium-68 labelled] has a tumour uptake of 6.83 %ID/g (CD274 (Homo sapiens, UniProt Q9NZQ7); PET; hu-CD34+ NOG-EXL mouse, U-87 MG xenograft; baseline).
For S=C=NCCc1ccccc1, the inhibition was 74% (CYP2D6; enzyme activity; human liver microsomes; concentration not given, with: dextromethorphan).
The IC50 of O=C/C=C/c1ccccc1 is reported as 21.5 ± 1.5 µg/mL (CYP1A2; inhibitor, high-throughput CYP450 kit; human).
C[C@@H](O)[C@@H](CO)NC(=O)[C@@H](CCCNC(=N)N)NC(=O)[C@@H]1CCCN1C(=O)[C@@H]1CSSC[C@H](NC(=O)[C@H](Cc2ccccc2)NC(=O)CN2CCN(CC(=O)O)CCN(CC(=O)O)CCN(CC(=O)O)CC2)C(=O)N[C@@H](Cc2ccc(O)cc2)C(=O)N[C@@H](Cc2ccccc2)C(=O)N[C@@H](CCC(N)=O)C(=O)N[C@@H](CC(N)=O)C(=O)N1 [gallium-68 labelled] has a tissue uptake of 0.18 %ID/g (Wistar rat, healthy, Parotid gland; intravenous, 8 MBq, 60 min).
For O=C1CCC(N2C(=O)c3ccccc3C2=O)C(=O)N1 (stereo not drawn), the inhibition was 38.9% (SLC47A1; transport, inhibitor; transiently transfected cells; 100 µM, 10 (unit not given), with: metformin).
Under “incidence of SAE”, CO[C@H]1C[C@@H]2CC[C@@H](C)[C@@](O)(O2)C(=O)C(=O)N2CCCC[C@H]2C(=O)O[C@H]([C@H](C)C[C@@H]2CC[C@@H](OC(=O)NCCOCCOCCOCCOCCOCCOCCOCCOCCC(=O)N3CCc4cc(Cn5nc(-c6ccc7oc(N)nc7c6)c6c(N)ncnc65)ccc4C3)[C@H](OC)C2)C[C@@H](O)[C@H](C)/C=C(\C)[C@@H](O)[C@@H](OC)C(=O)[C@H](C)C[C@H](C)/C=C/C=C/C=C/1C is recorded as 29.8% (advanced solid tumour patients; intravenous, dose not given, grade ≥3, all doses).
Cc1oncc1C(=O)Nc1ccc(C(F)(F)F)cc1 gave an inhibition of 78.3% (SLC47A1; transport, inhibitor; transiently transfected cells; 100 µM, 10 (unit not given), with: metformin).
CC[C@H](C)[C@H](NC(=O)[C@@H](N)CC(N)=O)C(=O)N1CCC[C@H]1C(=O)N1CCC[C@H]1C(=O)N[C@@H](CC(C)C)C(=O)N[C@H](C(=O)N[C@@H](CCC(N)=O)C(=O)N[C@H](C(=O)N1CCC[C@H]1C(=O)N[C@H](C(=O)N[C@H](C(=O)N[C@H](C(=O)N1CCC[C@H]1C(=O)N1CCC[C@H]1C(=O)N[C@@H](Cc1ccccc1)C(=O)N[C@@H](CC(C)C)C(=O)N[C@@H](CCC(N)=O)C(=O)N1CCC[C@H]1C(=O)N[C@@H](CCC(=O)O)C(=O)O)C(C)C)C(C)C)C(C)C)[C@@H](C)O)[C@@H](C)O gave an uptake increase of 54.5 ± 14.6% (SLC15A1 (Homo sapiens, UniProt P46059); HEK293 transfected with SLC15A1; 10 µM, 5 min, 37 °C; relative to: mock-transfected cells).
CC[C@H](C)[C@@H]1NC(=O)[C@@H]2CCCN2C(=O)[C@H](CC(C)C)NC(=O)[C@H](CC(C)C)NC(=O)CNC(=O)[C@@H](NC(=O)[C@@H](NC(=O)[C@H](CC(=O)O)NC(=O)CNC(=O)[C@@H](NC(=O)[C@H](C)NC(=O)CNC(=O)[C@H](CCCCN)NC(=O)[C@H](CC(C)C)NC(=O)[C@H](CC(C)C)NC(=O)[C@H](CCCCN)NC(=O)CNC(=O)[C@@H](NC(=O)[C@@H](N)CC(C)C)C(C)C)C(C)C)C(C)C)CSSC[C@@H](C(=O)O)NC1=O: “log2 fold change” 0.872 (RNA-seq, item: novel.268 mRNA; mouse traumatic brain injury, frontal cortex and hippocampus; dose not given; relative to: TBI plus compound vs TBI).
Under “inhibition of binding”, O=C(Nc1cccnn1)N1CCC(=Cc2cccc(Oc3ccc(C(F)(F)F)cn3)c2)CC1 is recorded as 70% (KCNH2; radioligand binding; 10 µM, human channel, with: [3H]astemizole).
The inhibition of CN(C)C(=O)COC(=O)Cc1ccc(OC(=O)c2ccc(NC(=N)N)cc2)cc1 is reported as 102% (SLC47A1; transport, inhibitor; transiently transfected cells; 100 µM, 10 (unit not given), with: metformin).
With COc1cc(Nc2ncc(F)c(Nc3ccc4c(n3)NC(=O)C(C)(C)O4)n2)cc(OC)c1OC the IC50 was greater than 10 µM (CRF receptor).
CC(C)=CC1C(C(=O)OC(C#N)c2cccc(Oc3ccccc3)c2)C1(C)C (stereo not drawn) — result for “enzyme contribution to CLint”: 7.39% (human CYP2C9; IVIVE from expressed enzymes; human, liver, in vivo scaled; age-specific).
COc1cc2c(Oc3ccc4[nH]c(C)cc4c3F)ccnc2cc1OCC1(N)CC1 — result for “sinus bradycardia incidence”: 25% (paediatric refractory sarcoma patients; 10 mg).
Under “enzyme contribution to CLint”, CC(C)[C@H](C(=O)O[C@H](C#N)c1cccc(Oc2ccccc2)c1)c1ccc(Cl)cc1 is recorded as 19.3% (human CYP2C9; IVIVE from expressed enzymes; human, liver, in vivo scaled; age-specific).
The intrinsic clearance of CC(C)CC(=O)OC[C@H]1O[C@@](C#N)(c2ccc3c(N)ncnn23)[C@H](O)[C@@H]1O is reported as 0 µL/min/pmol (CYP2D6; metabolic stability; recombinant enzyme; 1 µM).
For CCS(=O)(=O)N1CC(CC#N)(n2cc(-c3ncnc4[nH]ccc34)cn2)C1, the inhibition was 49.1% (SLC47A1; transport, inhibitor; 50 µM, with: metformin).
For CC[C@H](C)[C@H](NC(=O)[C@H](Cc1ccccc1)NC(=O)[C@H](CCC(=O)O)NC(=O)[C@H](CCCNC(=N)N)NC(=O)[C@H](C)NC(=O)[C@H](C)NC(=O)[C@H](CCC(N)=O)NC(=O)[C@H](CCC(=O)O)NC(=O)[C@H](CCC(=O)O)NC(=O)[C@H](CC(C)C)NC(=O)[C@H](Cc1ccc(O)cc1)NC(=O)[C@H](CO)NC(=O)[C@H](CO)NC(=O)[C@@H](NC(=O)[C@H](CC(=O)O)NC(=O)[C@H](CO)NC(=O)[C@@H](NC(=O)[C@H](Cc1ccccc1)NC(=O)[C@@H](NC(=O)CNC(=O)[C@H](CCC(=O)O)NC(=O)[C@H](C)NC(=O)CCc1c[nH]cn1)[C@@H](C)O)[C@@H](C)O)C(C)C)C(=O)N[C@@H](C)C(=O)N[C@@H](Cc1c[nH]c2ccccc12)C(=O)N[C@@H](CC(C)C)C(=O)N[C@H](C(=O)N[C@@H](CCCNC(=N)N)C(=O)NCC(=O)N[C@@H](CCCNC(=N)N)C(=O)N[C@@H](CCCCNC(=O)COCCOCCNC(=O)COCCOCCNC(=O)CC[C@H](NC(=O)CCCCCCCCCCCCCCCCC(=O)O)C(=O)O)C(=O)NCC(=O)NCC(=O)N[C@@H](CO)C(=O)N[C@@H](CCCCNc1c(NCCCCCN(O)C(=O)CCC(=O)NCCCCCN(O)C(=O)CCC(=O)NCCCCCN(O)C(C)=O)c(=O)c1=O)C(=O)O)C(C)C [zirconium-89 labelled], the tissue uptake was 0.14 %ID/g (ex vivo gamma counting; rat, femur; subcutaneous, 3 nmol/kg, 168 h, with: [89Zr]-labelled peptide).
COc1ccc2cc1Oc1ccc(cc1)C[C@H]1c3cc(c(OC)cc3CCN1C)Oc1c(OC)c(OC)cc3c1[C@H](C2)N(C)CC3 gave an inhibition of 72.8% (SLC47A1; transport activity, inhibitor; 10 µM, 10 (unit not given), with: metformin).
The IC50 of CS(=O)(=O)Nc1ncn(-c2cc(F)c(COc3ccc(OS(=O)(=O)F)cc3)c(F)c2)n1 is reported as greater than 50 µM (CYP2D6).

Repeated from above:
The IC50 of COc1ccc(CCC2CCCC(CCc3ccc(OC)cc3)N2C[C@@H](O)CO)cc1 (stereo in doubt) is reported as 0.81 ± 0.11 µM (KCNH2; binding, radioligand displacement; HEK293 cell membranes; with: [3H]dofetilide 5 nM).
With CCC[S+]([O-])c1ccc2[nH]c(NC(=O)OC)nc2c1 (stereo not drawn) the inhibition was 22% (CYP1A2; inhibitor; human liver microsomes; 10 µM, pH 7.4, with: phenacetin).
For CN1CC[C@@H](c2c(O)cc(O)c3c(=O)cc(-c4ccc(C(F)(F)F)cc4Cl)oc23)[C@@H]1CO, “patients with adverse event” read 0% (item: Anemia; relapsed B-cell malignancies; oral, 100 mg, grade 3-4, intermittent dosing).
